Measured values of several laboratories.
Several values in a cell are separate wells, animals, samples, runs or records.
Cell line: MCF7

`[Cl][Au].c1ccc(P(c2ccccc2)c2ccccc2)cc1` has an EC50 of 3.57 µM and 3.6 µM (cell growth or viability, resazurin; 72 h).
`CCCCCCCCCC(=O)N[C@@H](Cc1ccccc1)C(=O)N[C@H](C(=O)NCC(=O)N[C@H](C(=O)N[C@@H](CC(C)C)C(=O)N[C@H](C(=O)N1CCC[C@H]1C(=O)N[C@@H](CC(C)C)C(=O)N[C@@H](C)C(=O)N[C@@H](CC(C)C)C(=O)NCC(=O)N[C@@H](C)C(=O)N[C@@H](CC(C)C)C(=O)N[C@H](C(=O)N[C@@H](CCCCN)C(=O)N[C@@H](CC(C)C)C(=O)N[C@@H](Cc1ccccc1)C(=O)N[C@@H](CCCCN)C(N)=O)[C@@H](C)O)[C@@H](C)CC)[C@@H](C)O)[C@@H](C)CC` gave an IC50 of 8.18 µM (cell growth or viability, CCK-8; 24 h).
The IC50 of `CC(C)[C@H](NC(=O)[C@H](C(C)C)N(C)C)C(=O)N(C)[C@H](C(=O)N1CCC[C@H]1C(=O)N1CCC[C@H]1C(=O)NC(C)(C)C)C(C)C` is reported as 0.15 µM (cell growth or viability; 48 h).
`N.N.[Cl][Pt][Cl]` gave an IC50 of 7.24 µM (cell growth or viability, MTT; 48 h).
The IC50 of `CCCCCc1cc(O)c(C/C=C(\C)CCC=C(C)C)c(O)c1` is reported as 38.7 µM (cell growth or viability, MTT; 72 h).
With `COc1ccccc1N=NNc1ccccc1OC` the IC50 was 2.17 µM (cell growth or viability, LDH).
`NNC(=O)Cn1c2ccccc2c2cn[nH]c(=O)c21` has a fold change of 5.75 (RT-PCR, item: P53; 5 µM, 48 h, normalised to β-actin; reference: untreated).
`CN[C@@H]1C[C@H]2O[C@@](C)([C@@H]1OC)n1c3ccccc3c3c4c(c5c6ccccc6n2c5c31)C(=O)NC4` has a pre-G1 cells of 31.7% (cell cycle analysis; 10 µg/mL, 24 h).
For `Cn1nnc2c(C(N)=O)ncn2c1=O`, the IC50 was 0.77 µM (cell growth or viability, LDH).
`COc1cc(/C=C/C(O)=C/C(=O)/C=C/c2ccc(O)cc2)ccc1O` has an IC50 of 22.1 µg/mL (cell growth or viability, MTT; 48 h).

For quick reference, copied from above:
`CN[C@@H]1C[C@H]2O[C@@](C)([C@@H]1OC)n1c3ccccc3c3c4c(c5c6ccccc6n2c5c31)C(=O)NC4` has a pre-G1 cells of 31.7% (cell cycle analysis; 10 µg/mL, 24 h).
